Assay results from different studies.
Parts stem from different laboratories: compare values within a part only.
UniProt P29320, sequence (whole entry, looked up): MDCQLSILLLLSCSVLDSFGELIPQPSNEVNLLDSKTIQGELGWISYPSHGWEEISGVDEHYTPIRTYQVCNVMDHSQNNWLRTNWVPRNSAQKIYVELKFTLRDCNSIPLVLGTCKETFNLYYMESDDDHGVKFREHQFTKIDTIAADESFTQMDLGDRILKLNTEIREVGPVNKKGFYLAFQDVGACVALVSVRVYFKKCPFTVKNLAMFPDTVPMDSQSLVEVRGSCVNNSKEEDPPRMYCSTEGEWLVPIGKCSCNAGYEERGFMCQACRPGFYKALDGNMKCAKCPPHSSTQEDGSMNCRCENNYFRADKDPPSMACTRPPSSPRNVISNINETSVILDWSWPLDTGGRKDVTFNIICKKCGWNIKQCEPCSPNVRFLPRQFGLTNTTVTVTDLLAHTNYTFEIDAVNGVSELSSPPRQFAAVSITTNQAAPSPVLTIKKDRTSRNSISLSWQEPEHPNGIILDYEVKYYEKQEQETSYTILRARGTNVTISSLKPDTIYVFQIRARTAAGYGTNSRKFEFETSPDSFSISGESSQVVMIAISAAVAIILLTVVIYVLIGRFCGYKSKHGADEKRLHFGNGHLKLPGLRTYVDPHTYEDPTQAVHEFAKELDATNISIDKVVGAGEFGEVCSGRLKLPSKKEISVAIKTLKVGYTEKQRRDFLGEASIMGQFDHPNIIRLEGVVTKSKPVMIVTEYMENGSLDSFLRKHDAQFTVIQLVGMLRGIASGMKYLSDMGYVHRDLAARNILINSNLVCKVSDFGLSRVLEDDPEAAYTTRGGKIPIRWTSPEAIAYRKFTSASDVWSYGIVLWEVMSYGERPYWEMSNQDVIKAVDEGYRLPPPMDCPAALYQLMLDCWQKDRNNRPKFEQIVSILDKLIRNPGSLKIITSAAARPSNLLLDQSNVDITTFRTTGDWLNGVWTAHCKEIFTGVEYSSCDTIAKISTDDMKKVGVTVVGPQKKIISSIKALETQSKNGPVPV
UniProt P42336, sequence (whole entry, unmodified, looked up): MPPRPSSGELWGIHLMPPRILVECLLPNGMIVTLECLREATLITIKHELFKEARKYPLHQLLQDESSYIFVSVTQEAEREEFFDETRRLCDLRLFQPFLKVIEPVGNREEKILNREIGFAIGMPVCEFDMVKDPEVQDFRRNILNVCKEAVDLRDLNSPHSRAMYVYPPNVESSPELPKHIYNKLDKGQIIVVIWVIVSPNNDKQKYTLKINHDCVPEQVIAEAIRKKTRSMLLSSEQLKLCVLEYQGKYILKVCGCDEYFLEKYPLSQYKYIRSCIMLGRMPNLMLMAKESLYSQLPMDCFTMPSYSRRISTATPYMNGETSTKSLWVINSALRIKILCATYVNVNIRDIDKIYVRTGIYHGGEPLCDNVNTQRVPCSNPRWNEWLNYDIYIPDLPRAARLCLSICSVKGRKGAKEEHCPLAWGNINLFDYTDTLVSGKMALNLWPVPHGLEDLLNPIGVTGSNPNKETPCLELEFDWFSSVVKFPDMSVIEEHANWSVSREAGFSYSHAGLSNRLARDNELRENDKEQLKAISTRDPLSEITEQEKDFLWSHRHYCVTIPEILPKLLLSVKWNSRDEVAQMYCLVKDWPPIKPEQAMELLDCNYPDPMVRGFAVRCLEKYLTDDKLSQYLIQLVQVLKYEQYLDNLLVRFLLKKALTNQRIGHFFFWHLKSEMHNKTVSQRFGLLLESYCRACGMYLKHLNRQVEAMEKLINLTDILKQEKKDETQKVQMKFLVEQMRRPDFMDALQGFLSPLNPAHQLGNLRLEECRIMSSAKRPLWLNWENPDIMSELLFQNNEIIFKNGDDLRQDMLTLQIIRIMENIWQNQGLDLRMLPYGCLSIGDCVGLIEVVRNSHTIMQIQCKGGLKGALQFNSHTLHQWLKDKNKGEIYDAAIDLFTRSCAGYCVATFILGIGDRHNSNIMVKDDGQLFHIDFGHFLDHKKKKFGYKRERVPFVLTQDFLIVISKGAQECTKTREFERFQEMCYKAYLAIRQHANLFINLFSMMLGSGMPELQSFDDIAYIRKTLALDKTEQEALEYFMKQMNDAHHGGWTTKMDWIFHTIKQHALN
UniProt P11802, sequence (whole entry, looked up): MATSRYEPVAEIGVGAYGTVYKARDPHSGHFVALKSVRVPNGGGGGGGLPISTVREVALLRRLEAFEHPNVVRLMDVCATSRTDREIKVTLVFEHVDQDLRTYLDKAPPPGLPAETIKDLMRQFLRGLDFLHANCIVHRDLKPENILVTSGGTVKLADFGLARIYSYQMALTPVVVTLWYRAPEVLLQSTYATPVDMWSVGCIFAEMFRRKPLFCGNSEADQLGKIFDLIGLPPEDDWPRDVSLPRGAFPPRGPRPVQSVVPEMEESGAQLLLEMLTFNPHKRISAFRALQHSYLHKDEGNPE
UniProt O94804, sequence (whole entry, looked up): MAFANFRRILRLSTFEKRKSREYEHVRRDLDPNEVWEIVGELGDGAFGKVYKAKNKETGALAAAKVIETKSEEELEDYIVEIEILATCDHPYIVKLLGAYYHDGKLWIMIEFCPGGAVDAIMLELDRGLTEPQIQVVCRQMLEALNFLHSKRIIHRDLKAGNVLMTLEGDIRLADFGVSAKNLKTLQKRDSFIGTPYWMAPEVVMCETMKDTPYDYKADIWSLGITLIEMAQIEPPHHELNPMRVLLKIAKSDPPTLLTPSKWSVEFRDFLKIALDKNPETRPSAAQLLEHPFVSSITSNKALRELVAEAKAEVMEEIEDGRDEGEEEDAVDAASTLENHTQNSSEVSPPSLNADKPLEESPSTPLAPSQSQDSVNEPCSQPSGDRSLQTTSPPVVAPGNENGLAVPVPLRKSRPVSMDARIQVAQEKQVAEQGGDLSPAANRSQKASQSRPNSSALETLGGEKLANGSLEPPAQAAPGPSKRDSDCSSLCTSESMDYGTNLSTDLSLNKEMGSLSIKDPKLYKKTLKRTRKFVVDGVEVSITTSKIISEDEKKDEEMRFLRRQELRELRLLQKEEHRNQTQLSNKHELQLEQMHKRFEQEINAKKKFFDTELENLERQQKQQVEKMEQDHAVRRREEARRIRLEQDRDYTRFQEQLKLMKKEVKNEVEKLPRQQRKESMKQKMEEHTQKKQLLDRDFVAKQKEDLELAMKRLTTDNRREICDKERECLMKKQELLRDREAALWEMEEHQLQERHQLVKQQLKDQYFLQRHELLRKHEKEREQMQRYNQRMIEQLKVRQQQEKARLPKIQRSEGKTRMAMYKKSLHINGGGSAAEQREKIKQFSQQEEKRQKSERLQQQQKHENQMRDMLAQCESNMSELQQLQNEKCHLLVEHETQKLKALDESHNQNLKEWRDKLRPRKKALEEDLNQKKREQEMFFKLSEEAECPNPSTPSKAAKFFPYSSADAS
UniProt Q8WTQ7, sequence (whole entry, looked up): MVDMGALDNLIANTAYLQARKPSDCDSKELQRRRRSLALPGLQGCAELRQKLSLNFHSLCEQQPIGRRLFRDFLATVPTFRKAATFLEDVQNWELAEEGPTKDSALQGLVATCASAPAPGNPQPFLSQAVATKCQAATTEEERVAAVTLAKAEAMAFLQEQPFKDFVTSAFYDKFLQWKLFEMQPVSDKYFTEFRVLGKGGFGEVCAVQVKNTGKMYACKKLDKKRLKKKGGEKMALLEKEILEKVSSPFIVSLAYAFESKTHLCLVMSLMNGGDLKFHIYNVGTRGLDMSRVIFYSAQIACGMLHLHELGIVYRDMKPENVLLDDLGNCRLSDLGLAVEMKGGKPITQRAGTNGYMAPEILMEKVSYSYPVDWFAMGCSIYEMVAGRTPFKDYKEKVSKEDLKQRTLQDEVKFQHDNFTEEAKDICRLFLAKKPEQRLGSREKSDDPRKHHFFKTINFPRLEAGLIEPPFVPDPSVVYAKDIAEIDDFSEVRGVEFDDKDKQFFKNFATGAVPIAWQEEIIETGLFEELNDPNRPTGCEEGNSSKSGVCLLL
UniProt O95747, sequence (whole entry, looked up): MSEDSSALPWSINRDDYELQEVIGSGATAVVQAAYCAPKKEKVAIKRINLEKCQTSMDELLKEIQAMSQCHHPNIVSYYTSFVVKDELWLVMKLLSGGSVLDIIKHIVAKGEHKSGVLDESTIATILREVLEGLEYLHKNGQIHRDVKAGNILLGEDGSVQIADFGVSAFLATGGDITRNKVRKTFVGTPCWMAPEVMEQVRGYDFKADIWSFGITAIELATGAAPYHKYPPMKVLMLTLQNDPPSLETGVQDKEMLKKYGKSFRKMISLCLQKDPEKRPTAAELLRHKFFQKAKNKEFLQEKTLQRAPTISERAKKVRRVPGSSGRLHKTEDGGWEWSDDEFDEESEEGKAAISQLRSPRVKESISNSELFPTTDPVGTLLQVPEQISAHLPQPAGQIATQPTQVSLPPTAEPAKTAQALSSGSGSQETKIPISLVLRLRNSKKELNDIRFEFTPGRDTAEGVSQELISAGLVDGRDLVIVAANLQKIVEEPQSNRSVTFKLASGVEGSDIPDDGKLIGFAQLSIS
UniProt P46734, sequence (whole entry, looked up): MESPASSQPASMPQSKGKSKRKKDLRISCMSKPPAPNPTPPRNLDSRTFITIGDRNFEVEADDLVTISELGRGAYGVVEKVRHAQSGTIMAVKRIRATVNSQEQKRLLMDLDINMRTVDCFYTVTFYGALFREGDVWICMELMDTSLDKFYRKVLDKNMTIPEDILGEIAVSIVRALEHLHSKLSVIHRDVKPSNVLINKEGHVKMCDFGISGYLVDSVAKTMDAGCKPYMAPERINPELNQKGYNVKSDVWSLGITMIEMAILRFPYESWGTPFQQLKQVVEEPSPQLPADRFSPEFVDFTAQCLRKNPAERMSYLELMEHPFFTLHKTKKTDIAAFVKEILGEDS

Sample 1
SMILES: C[C@@]1(Cc2ccc(C#N)cc2)C(=O)N(c2cc(Cl)cc(Cl)c2)c2ncc(C(=O)NC3(c4nc(C5CCC5)no4)CC3)n21
Read-out: cell-free assay
Method: competition with immobilised ligand
Tested at: 1 µM
Endpoint: remaining binding
Cyclin-dependent kinase 4, with cyclin D1 (CDK4, Homo sapiens, UniProt P11802): 100%
Tyrosine-protein kinase ABL1, phosphorylated (ABL1, Homo sapiens, UniProt P00519, T315I): 100%
MAP2K3 (Homo sapiens, UniProt P46734): 89%
PRKAA2 (Homo sapiens, UniProt P54646): 100%
TAOK2 (Homo sapiens, UniProt Q9UL54): 100%
MAP3K2 (Homo sapiens, UniProt Q9Y2U5): 100%
RPS6KB1 (Homo sapiens, UniProt P23443): 100%
GRK7 (Homo sapiens, UniProt Q8WTQ7): 100%
PAK4 (Homo sapiens, UniProt O96013): 98%
OXSR1 (Homo sapiens, UniProt O95747): 84%
EPHA3 (Homo sapiens, UniProt P29320): 83%
PIK3CA (Homo sapiens, UniProt P42336, C420R): 89%
SIK3 (Homo sapiens, UniProt Q9Y2K2): 98%

Sample 2
Species: mouse
Medium: microsomes or S9
Tested at: 2 µM
Time: 0.5 h
Endpoint: remaining compound
NS(=O)(=O)C1(CNc2nccc3cccnc23)CCC1: 0.0332%
O=C(C1CC(=O)N(c2n[nH]c3ccccc23)C1)N1CCC(c2noc3cc(F)ccc23)CC1 (stereo not drawn): 63.4%
C[S+]([O-])c1nc(-c2cccs2)cc(-c2ccccc2)c1C#N (stereo not drawn): 2.55%
NC(=O)C1CN(c2cc(=O)n3ccccc3n2)CCN1 (stereo not drawn): 84%
CC(C)(C)C1CCc2c(sc(NC(=O)Cc3ccccc3)c2C#N)C1 (stereo not drawn): 45.5%
O=C(CN1C(=O)CCC1=O)N1CC(S(=O)(=O)C2CCCCC2)C1: 62.5%
Cc1ccc(CC2S/C(=N/N=C/c3ccncc3)N(Cc3ccco3)C2=O)cc1C (stereo not drawn): 10.9%
O=C(Nc1cccc2ccccc12)C1c2ccccc2Oc2ccccc21: 59.1%

Sample 3
Cell line: A-375
Tested at: 100 µM
Time: 18 h
Endpoint: viability
CN(C)CCCN1c2ccccc2Sc2ccc(Cl)cc21: 8.27%
N[C@H]1C(O)O[C@H](CO)[C@@H](O)[C@@H]1O (stereo partly drawn): 95.4%
C1N2CN3CN1CN(C2)C3: 86.5%
O=c1ccc2cc3ccoc3cc2o1: 104%
Clc1ccc(C(Cn2ccnc2)OCc2ccsc2Cl)c(Cl)c1 (stereo not drawn): 8.67%
CCN(CC)CCc1nc(-c2ccccc2)no1: 70%

Sample 4
SMILES: CCC(=O)Nc1ccc2ncnc(Nc3cccc(Br)c3)c2c1
Read-out: enzyme activity
Action: inhibitor
Tested at: 0.5 µM
Relative to: control
Endpoint: remaining activity
STK10 (Homo sapiens, UniProt O94804): 68.7%
cGMP-dependent protein kinase 1, isoform beta (PRKG1, Homo sapiens, UniProt Q13976): 110%
TGFBR2 (Homo sapiens, UniProt P37173): 116%
Tyrosine-protein kinase Lyn, isoform B (LYN, Homo sapiens, UniProt P07948): 87.7%
Protein kinase C beta type, isoform beta-I (PRKCB, Homo sapiens, UniProt P05771): 99.2%
DAPK1 (Homo sapiens, UniProt P53355): 99.4%
CAMK2D (Homo sapiens, UniProt Q13557): 113%
TGFBR1 (Homo sapiens, UniProt P36897): 101%
IKBKB (Homo sapiens, UniProt O14920): 94.9%

Excerpt of the above (sample 4):
TGFBR1 (Homo sapiens, UniProt P36897): 101%
STK10 (Homo sapiens, UniProt O94804): 68.7%
